Experimental data of several laboratories.
Each line is one published result; not all experiments were run side by side. Values joined by “and” are separate records of one study, mostly repeats; a detail may differ. ± marks the error that the study gave.
PLEKHA4 PH domain: Pleckstrin homology domain-containing family A member 4, PH domain (PLEKHA4, Homo sapiens, UniProt Q9H4M7)
Chain of UniProt Q9H4M7 (whole entry, looked up): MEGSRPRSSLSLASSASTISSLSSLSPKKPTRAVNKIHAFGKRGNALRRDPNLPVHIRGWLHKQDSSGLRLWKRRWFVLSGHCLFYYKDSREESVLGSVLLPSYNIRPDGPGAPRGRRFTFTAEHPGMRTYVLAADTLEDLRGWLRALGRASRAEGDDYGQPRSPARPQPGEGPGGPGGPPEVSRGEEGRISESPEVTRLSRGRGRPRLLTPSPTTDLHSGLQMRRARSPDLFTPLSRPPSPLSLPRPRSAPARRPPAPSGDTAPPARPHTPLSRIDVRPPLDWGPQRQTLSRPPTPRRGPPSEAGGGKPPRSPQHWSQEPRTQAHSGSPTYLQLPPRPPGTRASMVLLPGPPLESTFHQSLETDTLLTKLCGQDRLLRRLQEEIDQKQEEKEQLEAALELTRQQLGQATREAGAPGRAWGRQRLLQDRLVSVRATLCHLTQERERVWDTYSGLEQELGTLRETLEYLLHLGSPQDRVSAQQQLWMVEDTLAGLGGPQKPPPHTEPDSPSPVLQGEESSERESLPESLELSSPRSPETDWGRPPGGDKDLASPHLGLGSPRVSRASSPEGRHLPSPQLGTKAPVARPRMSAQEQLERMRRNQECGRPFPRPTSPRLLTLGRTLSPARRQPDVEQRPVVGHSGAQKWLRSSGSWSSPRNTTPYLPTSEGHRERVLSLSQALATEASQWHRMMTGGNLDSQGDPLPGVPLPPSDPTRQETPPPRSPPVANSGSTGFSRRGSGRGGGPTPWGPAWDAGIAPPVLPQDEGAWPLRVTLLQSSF
Chain of UniProt P28566 (whole entry, looked up): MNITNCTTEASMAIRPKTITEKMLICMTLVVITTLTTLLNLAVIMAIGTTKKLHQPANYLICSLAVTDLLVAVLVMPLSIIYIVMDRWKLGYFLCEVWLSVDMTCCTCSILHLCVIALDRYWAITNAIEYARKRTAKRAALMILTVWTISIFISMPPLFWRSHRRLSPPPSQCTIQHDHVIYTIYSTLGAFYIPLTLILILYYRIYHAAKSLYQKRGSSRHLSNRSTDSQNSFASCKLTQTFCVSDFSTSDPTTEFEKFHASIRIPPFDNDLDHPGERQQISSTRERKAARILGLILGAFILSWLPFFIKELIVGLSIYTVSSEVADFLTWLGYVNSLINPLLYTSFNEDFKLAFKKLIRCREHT
Chain of UniProt P13716 (whole entry, looked up): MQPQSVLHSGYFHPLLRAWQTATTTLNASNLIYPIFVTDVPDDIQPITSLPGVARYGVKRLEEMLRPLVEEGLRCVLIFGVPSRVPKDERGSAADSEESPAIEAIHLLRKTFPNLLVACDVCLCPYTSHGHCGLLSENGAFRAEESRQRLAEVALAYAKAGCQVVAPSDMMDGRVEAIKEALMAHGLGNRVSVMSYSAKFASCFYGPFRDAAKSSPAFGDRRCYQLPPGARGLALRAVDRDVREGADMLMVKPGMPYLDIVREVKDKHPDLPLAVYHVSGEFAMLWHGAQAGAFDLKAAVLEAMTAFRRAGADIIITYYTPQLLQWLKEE
Chain of UniProt Q15391 (whole entry, unmodified, looked up): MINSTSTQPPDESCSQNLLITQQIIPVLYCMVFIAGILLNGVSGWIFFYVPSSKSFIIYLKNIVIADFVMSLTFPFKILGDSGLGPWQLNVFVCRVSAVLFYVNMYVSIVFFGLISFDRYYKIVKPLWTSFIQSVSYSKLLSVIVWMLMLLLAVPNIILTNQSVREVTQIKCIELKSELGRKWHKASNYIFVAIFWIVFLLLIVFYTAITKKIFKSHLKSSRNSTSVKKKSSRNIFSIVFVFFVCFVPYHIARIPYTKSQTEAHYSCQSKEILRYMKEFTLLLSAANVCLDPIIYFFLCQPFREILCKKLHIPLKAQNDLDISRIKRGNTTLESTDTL
Chain of UniProt P07363 (whole entry, looked up): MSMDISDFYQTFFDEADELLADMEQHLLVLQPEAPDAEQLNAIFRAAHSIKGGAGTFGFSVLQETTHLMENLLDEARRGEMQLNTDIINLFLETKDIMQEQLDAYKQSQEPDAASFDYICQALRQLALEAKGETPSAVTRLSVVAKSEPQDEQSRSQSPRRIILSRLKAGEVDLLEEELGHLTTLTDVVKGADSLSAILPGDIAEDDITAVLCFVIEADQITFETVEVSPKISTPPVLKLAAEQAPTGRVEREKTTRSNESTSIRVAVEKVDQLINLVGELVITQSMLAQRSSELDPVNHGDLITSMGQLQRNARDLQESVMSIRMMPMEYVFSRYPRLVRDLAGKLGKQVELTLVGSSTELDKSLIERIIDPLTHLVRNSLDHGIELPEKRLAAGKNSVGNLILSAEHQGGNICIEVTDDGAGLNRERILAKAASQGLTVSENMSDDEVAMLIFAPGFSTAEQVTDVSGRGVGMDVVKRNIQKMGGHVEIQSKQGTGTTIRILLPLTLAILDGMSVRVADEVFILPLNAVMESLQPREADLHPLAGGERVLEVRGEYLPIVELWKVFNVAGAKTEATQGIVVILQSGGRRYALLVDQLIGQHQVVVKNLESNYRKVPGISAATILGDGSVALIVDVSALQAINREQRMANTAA
Chain of UniProt Q6IQ20 (whole entry, looked up): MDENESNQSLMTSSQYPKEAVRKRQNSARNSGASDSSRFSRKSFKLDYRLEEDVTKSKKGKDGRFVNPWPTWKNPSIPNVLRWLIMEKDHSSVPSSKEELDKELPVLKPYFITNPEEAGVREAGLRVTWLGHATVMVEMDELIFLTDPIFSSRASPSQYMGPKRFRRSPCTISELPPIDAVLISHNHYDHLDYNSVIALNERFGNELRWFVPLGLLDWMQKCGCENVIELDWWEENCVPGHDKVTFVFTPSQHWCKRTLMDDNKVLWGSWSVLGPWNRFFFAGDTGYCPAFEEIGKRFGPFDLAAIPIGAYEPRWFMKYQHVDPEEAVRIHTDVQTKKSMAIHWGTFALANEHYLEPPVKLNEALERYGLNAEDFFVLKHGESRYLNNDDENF
Chain of UniProt P16257 (whole entry, looked up): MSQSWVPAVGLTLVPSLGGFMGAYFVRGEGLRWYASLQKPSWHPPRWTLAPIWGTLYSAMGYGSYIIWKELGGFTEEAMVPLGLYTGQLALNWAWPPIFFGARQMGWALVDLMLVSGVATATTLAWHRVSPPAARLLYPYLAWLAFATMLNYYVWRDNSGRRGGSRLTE
Chain of UniProt Q9R0C9 (whole entry, looked up): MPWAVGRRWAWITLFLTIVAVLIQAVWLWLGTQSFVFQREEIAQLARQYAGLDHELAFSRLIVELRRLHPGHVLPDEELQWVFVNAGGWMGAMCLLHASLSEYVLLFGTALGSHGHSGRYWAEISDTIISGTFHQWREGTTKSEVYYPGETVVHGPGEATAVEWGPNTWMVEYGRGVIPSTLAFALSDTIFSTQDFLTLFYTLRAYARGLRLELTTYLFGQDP

Structure (SMILES)	tested on	assay	system	conditions	how to read	endpoint	result
Nc1ncnc2c1ncn2[C@@H]1O[C@H](COP(=O)(O)OP(=O)(O)CP(=O)(O)O)[C@@H](O)[C@H]1O	Chemotaxis protein CheA (Escherichia coli, UniProt P07363)	kinase activity, inhibitor		CheA-CheW vesicle-assembled complexes, estimated		Ki	877 µM
CCOc1ccc(C(=O)CC(SCc2cccc(Br)c2)C(=O)O)cc1 (stereo not drawn)	PLEKHA4 PH domain	PLEKHA4 PI(4,5)P2 binding, fluorescence polarization		with: BODIPY-PI(4,5)P2 tracer		Ki	33 ± 5.3 µM
CC(C)C[C@H](NC(=O)C[C@H](O)[C@H](CC(C)C)NC(=O)[C@H](Cc1c[nH]cn1)NC(=O)CNC(=O)[C@@H](NC(=O)[C@H](C)NC(=O)[C@H](Cc1c[nH]c2ccccc12)NC(=O)[C@H](CCC(N)=O)NC(=O)[C@@H](Cc1ccccc1)NC(=O)COCCOCCNC(=O)CCC(C(=O)O)N1CCN(CC(=O)O)CCN(CC(=O)O)CCN(CC(=O)O)CC1)C(C)C)C(N)=O (stereo partly drawn) [lutetium-177 labelled]			BALB/c nu/nu mice, skin	intravenous, 750 pmol, 1 h, with: PA 300 µg		tissue uptake	0.4 ± 0.1 %ID/g
C#CCNCc1ccc(C(=O)c2ccc([N+](=O)[O-])cc2)cc1	Sigmar1 (Rattus norvegicus, UniProt Q9R0C9)	binding, radioligand displacement	rat liver membranes	with: [3H](+)-pentazocine 10 nM		Ki	0.12 µM
COc1cc2c(c(OC)c1OC)-c1c(cc3c(c1OC)OCO3)CC(C)C(C)C2 (stereo not drawn)	CYP3A, rat	poziotinib metabolism to M2, inhibitor	rat liver microsomes	with: poziotinib		Ki	6.91 µM
CN1CCN2c3ncccc3Cc3ccccc3C2C1 (stereo not drawn)	HTR1E (Homo sapiens, UniProt P28566)	binding				Ki	0.269 µM
CCOc1ccc(C(=O)CC(SCc2ccccc2Br)C(=O)O)cc1 (stereo not drawn)	PLEKHA4 PH domain	PLEKHA4 PI(4,5)P2 binding, fluorescence polarization		with: BODIPY-PI(4,5)P2 tracer		Ki	50.4 ± 9.6 µM
O=c1[nH]c(=O)c2cc(S(=O)(=O)Nc3ccc(-c4ccncc4)cc3)ccc2[nH]1	N-acyl-phosphatidylethanolamine-hydrolyzing phospholipase D (Homo sapiens, UniProt Q6IQ20)					Ki	20.1 µM
O=c1ccn([C@@H]2O[C@H](COP(=O)(O)OP(=O)(O)O[C@H]3O[C@H](CO)[C@@H](O)[C@H](O)[C@H]3O)[C@@H](O)[C@H]2O)c(=S)[nH]1	P2Y purinoceptor 14 (P2RY14, Homo sapiens, UniProt Q15391, H184A)					Ki	> 3 µM
COc1cccc(C(=O)CC(SCc2ccc(Cl)cc2)C(=O)O)c1 (stereo not drawn)	PLEKHA4 PH domain	PLEKHA4 PI(4,5)P2 binding, fluorescence polarization		with: BODIPY-PI(4,5)P2 tracer		Ki	118 ± 33 µM
CC(=O)N[C@H]1[C@H](O[C@H]2[C@H](O)[C@@H](NC(C)=O)C(O)O[C@@H]2CO)O[C@H](CO)[C@@H](O[C@@H]2O[C@H](CO)[C@@H](O[C@@H]3O[C@H](CO)[C@@H](O)[C@H](O)[C@H]3NC(C)=O)[C@H](O)[C@H]2NC(C)=O)[C@@H]1O (stereo partly drawn)	LysM receptor-like kinase (Brachypodium distachyon, UniProt A0A0Q3FRN3)	LCO binding, radioligand competition binding	membrane fractions			Ki	0.0292 µM and 0.054 µM
CCOC(=O)C12CC1C(n1ccc3c(NCCCc4ccccc4)nc(C#Cc4ccc(Cl)s4)nc31)C(O)C2O (stereo not drawn)	Tspo (Rattus norvegicus, UniProt P16257)	binding		PDSP off-target screen		Ki	0.28 µM
NCc1[nH]cc(CCC(=O)O)c1CC(=O)O	Delta-aminolevulinic acid dehydratase (Homo sapiens, UniProt P13716)	enzyme activity, inhibitor, 1H NMR		with: aminolevulinic acid varied		Ki	1800 µM
COc1c(O)c(C)cc2c1C(=O)c1c(cc(O)c(O)c1O)C2=O	HK-2 co-cultured with HepaRG	MTT		133.33 µM, 48 h	baseline: untreated control	viability	73 ± 5.96%
Cn1cc(-c2ccc(-c3cncc(Cl)c3N3CCC4(CCNC4=O)CC3)cc2)cn1	COLO 205	gene expression, microarray, item: CLHC1 mRNA		concentration not given, 2 h	baseline: untreated cells	log2 fold change	2.04
COc1cc2c(c(OC)c1OC)C(=O)c1c(cc(C)c(O)c1OC)C2=O	HK-2 co-cultured with HepaRG	MTT		66.67 µM, 48 h	baseline: untreated control	viability	40.6 ± 6.6%
COc1cc2c(c(OC)c1OC)-c1c(cc(OC)c(OC)c1OC)C[C@H](C)[C@H](C)C2	CYP3A, rat	poziotinib metabolism to M2, inhibitor	rat liver microsomes	with: poziotinib		Ki	37 µM
CCOc1cccc(C(=O)CC(SCc2ccc(Cl)cc2)C(=O)O)c1 (stereo not drawn)	PLEKHA4 PH domain	PLEKHA4 PI(4,5)P2 binding, fluorescence polarization		with: BODIPY-PI(4,5)P2 tracer		Ki	38.9 ± 1.9 µM

Repeated from above:
Structure (SMILES)	tested on	assay	system	conditions	how to read	endpoint	result
C#CCNCc1ccc(C(=O)c2ccc([N+](=O)[O-])cc2)cc1	Sigmar1 (Rattus norvegicus, UniProt Q9R0C9)	binding, radioligand displacement	rat liver membranes	with: [3H](+)-pentazocine 10 nM		Ki	0.12 µM
COc1cc2c(c(OC)c1OC)-c1c(cc3c(c1OC)OCO3)CC(C)C(C)C2 (stereo not drawn)	CYP3A, rat	poziotinib metabolism to M2, inhibitor	rat liver microsomes	with: poziotinib		Ki	6.91 µM
